Published values from different studies.
Each line is one published result; not all experiments were run side by side. ± marks the error that the study gave.
CHRM1: Muscarinic acetylcholine receptor M1 (CHRM1, Homo sapiens, UniProt P11229)
UniProt P11229, sequence (whole entry, looked up): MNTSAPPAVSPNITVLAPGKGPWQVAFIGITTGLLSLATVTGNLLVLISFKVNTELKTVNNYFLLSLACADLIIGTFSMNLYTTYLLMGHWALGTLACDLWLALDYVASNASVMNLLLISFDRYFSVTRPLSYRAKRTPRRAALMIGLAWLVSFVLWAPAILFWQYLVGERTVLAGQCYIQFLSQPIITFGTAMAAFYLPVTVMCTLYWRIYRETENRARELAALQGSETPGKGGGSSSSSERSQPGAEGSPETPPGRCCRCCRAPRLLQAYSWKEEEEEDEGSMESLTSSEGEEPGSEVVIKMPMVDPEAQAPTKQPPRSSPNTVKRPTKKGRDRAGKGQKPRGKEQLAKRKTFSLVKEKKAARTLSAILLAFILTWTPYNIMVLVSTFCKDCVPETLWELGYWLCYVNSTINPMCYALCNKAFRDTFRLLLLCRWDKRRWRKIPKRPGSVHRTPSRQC

Substance	target or system	assay	test system	setting	how to read	endpoint	result
Cc1nn(-c2nc3ccc(Cl)c(Cl)c3[nH]2)c(O)c1C1OC(=O)c2ccccc21 (stereo not shown)	RAW-ISG	IFN reporter gene, inhibitor		added: HT-DNA		EC50	2.62 µM
C#Cc1cccc(Nc2ncnc3cc(OCCOC)c(OCCOC)cc23)c1	human tumour organoids	viability, CellTiter-Glo		72 h		EC50	12 µM
Clc1ccc2[nH]c(-c3ccccc3)cc2c1	RAW264.7	NO release, inhibitor, Griess		50 µM, 20 h, LPS-stimulated		inhibition	49.3%
CCN(CC)c1ccc(C2Nc3ccc(Cl)cc3NC3=C2C(=O)CC(C)(C)C3)cc1 (stereo not shown)	SH-SY5Y	cell growth or viability, MTS				EC50	> 50 µM
insulin icodec	rat primary adipocytes	lipogenesis, agonist, [3H]glucose incorporation into lipid		0.1% HSA		EC50	0.135 µM
CCNC(=O)Nc1ccc(S(=O)(=O)Oc2cccnc2I)cc1	THP-1 cells	CD11b+CD14+ differentiation, flow cytometry		120 h		EC50	11 µM
CN(C)C(=S)N/N=C1\C(=O)Nc2ccccc21	MIA PaCa-2	cell viability, MTT		48 h		EC50	> 18.3 µM
CC1(C)CC(=O)C2=C(C1)Nc1cc(C(=O)c3ccccc3)ccc1NC2c1ccc(N2CCOCC2)cc1 (stereo not shown)	SH-SY5Y	cell growth or viability, MTS				EC50	19.8 µM
CS(=O)(=O)CCNCc1ccc(-c2ccc3ncnc(Nc4ccc(OCc5cccc(F)c5)c(Cl)c4)c3c2)o1	MDA-MB-231/BCRP	topotecan antiproliferative enhancement, clonogenic		24 h, added: 40 nM topotecan		EC50	0.25 µM
CC1(C)CC(=O)C2=C(C1)Nc1cc(Cl)ccc1NC2c1ccc(N2CCCCC2)cc1 (stereo not shown)	SH-SY5Y	cell growth or viability, MTS				EC50	40.4 µM
CC(C)=CCn1c(-c2ccccc2)cc2ccccc21	RAW264.7	NO release, inhibitor, Griess		50 µM, 20 h, LPS-stimulated		inhibition	33.1%
CC[C@H](C)[C@@H]1NC(=O)[C@H](Cc2ccc(O)cc2)NC(=O)[C@@H](N)CSSC[C@@H](C(=O)N2CCC[C@H]2C(=O)N[C@@H](CC(C)C)C(=O)NCC(N)=O)NC(=O)[C@H](CC(N)=O)NC(=O)[C@H](CCC(N)=O)NC1=O	hiPSC-derived cardiomyocytes	intracellular Ca2+ increase, FLIPR				EC50	0.174 µM
CC1(C)CC(=O)C2=C(C1)Nc1cc(C(F)(F)F)ccc1NC2c1ccc(N2CCCC2)cc1 (stereo not shown)	SH-SY5Y	cytoprotection		added: thapsigargin 7.5 µM		EC50	< 20 µM
O=c1cc(-c2ccc([N+](=O)[O-])cc2)[nH]c2c(-c3ccc(Cl)cc3)c(Cc3ccccc3)nn12	MCF-10A	cell growth or viability, ATP luminescence				EC50	10 µM
COc1cc([C@@H]2c3cc4c(cc3[C@@H](O[C@@H]3O[C@@H]5CO[C@@H](c6cccs6)O[C@H]5[C@H](O)[C@H]3O)[C@H]3COC(=O)[C@H]23)OCO4)cc(OC)c1O	Trp53-null mouse neurospheres	cell proliferation		72 h		EC50	0.11 µM
CNC(=O)c1cc(O[C@H]2CC[C@H](NC(=O)Nc3ccc(Cl)c(C(F)(F)F)c3)CC2)ccn1	Huh-7	cell growth or viability, MTT		72 h		EC50	8 µM

Substance	target or system	assay	test system	setting	how to read	endpoint	result
[Au(mba)(PPh3)]	MCF-10A	cell viability		72 h		EC50	5.52 ± 0.36 µM
O=C1CCC(N2C(=O)c3cccc(NCCOCCOCCOCCN4CCN(c5ccc(-c6ccc7c(c6)C(=O)N(C(C(=O)Nc6nccs6)c6cc(F)ccc6F)C7)cc5)CC4)c3C2=O)C(=O)N1 (stereo not shown)	Ba/F3 EGFR L858R/T790M	cell proliferation				EC50	0.15 µM
tetraglycine	HLA-DRB1*01-restricted CD4 T-cell clone	TNF-alpha production		MHC class II presentation, added: peptide-loaded mature macrophage-derived DC		EC50	0.035 µM
CCN(CC)c1ccc(C2Nc3ccc(-c4ccccc4)cc3NC3=C2C(=O)CC(C)(C)C3)cc1 (stereo not shown)	SH-SY5Y	cell growth or viability, MTS				EC50	11.4 µM
Cn1ncc2ccc(COc3ccccc3-c3cc(=O)n(C4CCCCC4O)cn3)cc21 (stereo not shown)	CHRM1	allosteric agonist, IP1 accumulation	CHO-M1 cells	10 µM, unit not given	reference: maximum ACh response	change in baseline activity	73.5 ± 1.8
CN(C)c1ccc(C2Nc3ccc(-c4ccccc4)cc3NC3=C2C(=O)CC(C)(C)C3)cc1 (stereo not shown)	SH-SY5Y	cell growth or viability, MTS				EC50	21 µM
NC(=S)N/N=C1\C(=O)Nc2ccccc21	MIA PaCa-2	cell viability, MTT		48 h		EC50	> 100 µM
CCCCN(CCCC)c1ccc(C2Nc3ccc(-c4ccccc4)cc3NC3=C2C(=O)CC(C)(C)C3)cc1 (stereo not shown)	SH-SY5Y	cell growth or viability, MTS				EC50	> 50 µM
fibronectin	BHK	cell spreading on coated substance		coating concentration		EC50	0.004 µM
CC1(C)CC(=O)C2=C(C1)Nc1cc(C(F)(F)F)ccc1NC2c1ccc(N2CCCCC2)cc1 (stereo not shown)	SH-SY5Y	cytoprotection		added: thapsigargin 7.5 µM		EC50	< 20 µM
N[C@@H](CS(=O)(=O)O)C(=O)O	cerebellar granule cells	neuroprotection				EC50	23 µM
CCCCN1CCc2cc(OC)c(OC)cc2C1	pancreatic cancer cell lines	cell viability		48 h, over all lines tested		EC50	> 100 µM
CSc1ccc(/C=C2/C(C)=C(CC(=O)NCCN(C)C)c3cc(F)ccc32)cc1	Jurkat E6.1	cell growth				EC50	inactive
COC(=O)c1ccc(COc2ccccc2-c2cc(=O)n(C3CCCCC3O)cn2)cc1 (stereo not shown)	CHRM1	positive allosteric modulator, IP1 accumulation	CHO-M1 cells	10 µM, 60 min, 37 °C, added: ACh	reference: ACh alone, higher = stronger potentiation	ΔpEC50 of ACh	1.38 ± 0.13 log units
N[C@@H](CS(=O)O)C(=O)O	cerebellar granule cells	neuroprotection				EC50	28 µM
